# Published values gathered from unrelated publications.
# Each line is one published result; not all experiments were run side by side. ± marks the error that the study gave.
# B1: ceruloplasmin; sequence looked up; chain KEKHYYIGIIETTWDYASDHGEKKLISVDTEHSNIYLQNGPDRIGRLYKKALYLQYTDETFRTTIEKPVWLGFLGPIIKAETGDKVYVHLKNLASRPYTFHSHGITYYKEHEGAIYPDNTTDFQRADDKVYPGEQYTYMLLATEEQSPGEGDGNCVTRIYHSHIDAPKDIASGLIGPLIICKKDSLDKEKEKHIDREFVVMFSVVDENFSWYLEDNIKTYCSEPEKVDKDNEDFQESNRMYSVNGYTFGSLPGLSMCAEDRVKWYLFGMGNEVDVHAAFFHGQALTNKNYRIDTINLFPATLFDAYMVAQNPGEWMLSCQNLNHLKAGLQAFFQVQECNKSSSKDNIRGKHVRHYYIAAEEIIWNYAPSGIDIFTKENLTAPGSDSAVFFEQGTTRIGGSYKKLVYREYTDASFTNRKERGPEEEHLGILGPVIWAEVGDTIRVTFHNKGAYPLSIEPIGVRFNKNNEGTYYSPNYNPQSRSVPPSASHVAPTETFTYEWTVPKEVGPTNADPVCLAKMYYSAVEPTKDIFTGLIGPMKICKKGSLHANGRQKDVDKEFYLFPTVFDENESLLLEDNIRMFTTAPDQVDKEDEDFQESNKMHSMNGFMYGNQPGLTMCKGDSVVWYLFSAGNEADVHGIYFSGNTYLWRGERRDTANLFPQTSLTLHMWPDTEGTFNVECLTTDHYTGGMKQKYTVNQCRRQSEDSTFYLGERTYYIAAVEVEWDYSPQREWEKELHHLQEQNVSNAFLDKGEFYIGSKYKKVVYRQYTDSTFRVPVERKAEEEHLGILGPQLHADVGDKVKIIFKNMATRPYSIHAHGVQTESSTVTPTLPGETLTYVWKIPERSGAGTEDSACIPWAYYSTVDQVKDLYSGLIGPLIVCRRPYLKVFNPRRKLEFALLFLVFDENESWYLDDNIKTYSDHPEKVNKDDEEFIESNKMHAINGRMFGNLQGLTMHVGDEVNWYLMGMGNEIDLHTVHFHGHSFQYKHRGVYSSDVFDIFPGTYQTLEMFPRTPGIWLLHCHVTDHIHAGMETTYTVLQNEDTKSG
# B2: haptoglobin; sequence looked up; chain VDSGNDVTDIADDGCPKPPEIAHGYVEHSVRYQCKNYYKLRTEGDGVYTLNDKKQWINKAVGDKLPECEADDGCPKPPEIAHGYVEHSVRYQCKNYYKLRTEGDGVYTLNNEKQWINKAVGDKLPECEAVCGKPKNPANPVQRILGGHLDAKGSFPWQAKMVSHHNLTTGATLINEQWLLTTAKNLFLNHSENATAKDIAPTLTLYVGKKQLVEIEKVVLHPNYSQVDIGLIKLKQKVSVNERVMPICLPSKDYAEVGRVGYVSGWGRNANFKFTDHLKYVMLPVADQDQCIRHYEGSTVPEKKTPKSPVGVQPILNEHTFCAGMSKYQEDTCYGDAGSAFAVHDLEEDTWYATGILSFDKSCAVAEYGVYVKVTSIQDWVQKTIAEN
Molecule,tested on,test,system,conditions,scale,quantity,result
CSS(C)(=O)=O,Chlamydomonas reinhardtii arsenite methyltransferase Y72W,"Y72W tryptophan fluorescence quenching, fluorescence quenching",,,,EC50,~50 µM
amyloid beta-42 Met35-sulfone,methionine sulfoxide reductase (rat),"HPLC, dabsyl-Met(O)",rat primary cortical neurons,"10 µM, 24 h",baseline: untreated cells,Msr activity decrease,10 ± 4%
B1 (ceruloplasmin),anti-oxytocin rabbit polyclonal IgG,"cross-reactivity, oxytocin EIA, Enzo",,3 µg/mL,,apparent oxytocin concentration,2.2 ± 0.5 pg/mL
CC(C)[C@H](NC(=O)CNC(=O)CNC(=O)CNC(=O)[C@H](CCCNC(=N)N)NC(=O)[C@H](CCCNC(=N)N)NC(=O)[C@H](CCCNC(=N)N)NC(=O)[C@H](CCC(N)=O)NC(=O)[C@H](CCCNC(=N)N)NC(=O)[C@H](CCCNC(=N)N)NC(=O)[C@H](CCCCN)NC(=O)[C@H](CCCCN)NC(=O)[C@H](CCCNC(=N)N)NC(=O)CNC(=O)[C@@H](N)Cc1ccc(O)cc1)C(=O)N[C@H](C(=O)N[C@H](C(=O)N[C@@H](C)C(=O)O)[C@@H](C)O)C(C)C,ClpP and alpha-synuclein ΔC (human),"inhibitor, co-immunoprecipitation",HEK293T cells,,,protein interaction,inhibited
CCCOC(=O)Cc1ccc(OCC(=O)N(CC)CC)c(OC)c1,GABA-A receptor rat,"GABA-evoked chloride current, positive allosteric modulator, whole-cell patch clamp",embryonic rat cortical neurons,"pH 7.4, holding -60 mV, together with: GABA 5 µM",,EC50,26 µM
NC(=O)CC(N)C(=O)NC(CO)C(O)c1ccc([N+](=O)[O-])cc1 (centres unmarked),Escherichia coli 70S ribosome,"binding, fluorescence polarization",,together with: BODIPY-erythromycin 4 nM,,Kd,40 ± 26 µM
NCCS,ELIC G218F,"channel gating, agonist, two-electrode voltage clamp",Xenopus oocytes,,,EC50,440 ± 90 µM
FWWAAFFKG,adeno-associated virus 9,"capsid binding, bind-and-elute chromatography",peptide,"peptide ligand resin, MgCl2 elution",,recovery yield,53.7%
CC(=O)N1CCN(c2ccc(OCC3COC(Cn4ccnc4)(c4ccc(Cl)cc4Cl)O3)cc2)CC1 (centres unmarked),Leishmania infantum CYP51,,,concentration not given,,remaining activity,24 ± 1.6%
O=C(N[C@H](CO)[C@H](O)c1ccc([N+](=O)[O-])cc1)C(Cl)Cl,Escherichia coli 70S ribosome,"binding, fluorescence polarization",,together with: BODIPY-erythromycin 4 nM,,Kd,2.8 ± 0.5 µM
CC(C)=CCC/C(C)=C/Cn1ccn2cc(C(=O)NCc3ccc(F)cc3F)c(=O)c(O)c2c1=O,HIV-1 integrase wild type,viral replication,"HOS, HIV-1",single-round vector,,EC50,> 0.02 µM
CC(=O)C[C@@H](c1ccccc1)c1c(O)c2ccc(O)cc2oc1=O,UGT,measured: 7-glucuronide,human liver microsomes,,,Vmax1,1470 nmol/min/mg protein
C=CC(=O)OCCO,lysine-containing peptide,mass spectrometry,,"24 h, pH 10.2, room temperature",,maximal peptide depletion,-111%
complement C1q,anti-oxytocin rabbit polyclonal IgG,"cross-reactivity, oxytocin EIA, Enzo",,3 µg/mL,,apparent oxytocin concentration,23.1 ± 3.2 pg/mL
CN[C@@](C)(C[18F])C(=O)O,DU-145 tumour model,,"host not given, blood","2 h, tumour-bearing",,tracer uptake,0.6 %ID/g
α1-antitrypsin,anti-oxytocin rabbit polyclonal IgG,"cross-reactivity, oxytocin EIA, Enzo",,3 µg/mL,,apparent oxytocin concentration,0.5 ± 0.4 pg/mL
CCCCC/C=C\C/C=C\C/C=C\C/C=C\CCCC(=O)NCCO,rat glycine receptor,"glycine-evoked current, potentiator, whole-cell patch clamp",rat spinal neurons,,,EC50,5.5 ± 2 µM
COc1cc(/C=C/c2ccc(O)cc2)cc(OC)c1,Sp1 (human),"reporter gene, inhibitor",SW1353,control transcription factor,,IC50,> 25 µg/mL
CC(=O)OCC[N+](C)(C)C,"nicotinic acetylcholine receptor, mouse","[3H]GABA release, agonist",superior colliculus synaptosomes,low-sensitivity component,,EC50,33 ± 22 µM
CN(C)CCCn1cc(C2=C(c3c[nH]c4ccccc34)C(=O)NC2=O)c2ccccc21,"Yes kinase, rat","TPA-stimulated phosphorylation, PKC inhibitor, measured: Yes pY416",,"5 µM, 2.5 min, pretreatment, together with: TPA 1 µM",baseline: TPA alone,phosphorylation level,93 ± 4%
CC(C)C(N)C(=O)NC(CO)C(O)c1ccc([N+](=O)[O-])cc1 (centres unmarked),Escherichia coli 70S ribosome,"binding, fluorescence polarization",,together with: BODIPY-erythromycin 4 nM,,Kd,34 ± 8 µM
Cc1cc(Nc2nc(N[C@@H](C)c3ncc(F)cn3)ncc2Cl)n[nH]1,STAT5A/STAT5B,"DNA binding, inhibitor, EMSA",COS-7,"25 nM, 2 h, together with: human prolactin",baseline: vehicle,inhibition,> 50%
FWNWHHFKG,adeno-associated virus 9,"capsid binding, bind-and-elute chromatography",peptide,"peptide ligand resin, MgCl2 elution",,recovery yield,43.9%
CCCCCC1=C/C(=C/c2[nH]c(-c3ccc[nH]3)cc2OC)N=C1C,pre-miR-21 RNA,differential scanning fluorimetry,,,"baseline: untreated, positive = stabilisation",maximal ΔTm,7 °C
NC(Cc1ccc(O)cc1)C(=O)NC(CO)C(O)c1ccc([N+](=O)[O-])cc1 (centres unmarked),Escherichia coli 70S ribosome,"binding, fluorescence polarization",,together with: BODIPY-erythromycin 4 nM,,Kd,8.2 ± 1.5 µM
anthraquinone-neomycin,poly(dA)·2poly(dT) triplex,"triplex melting, UV melting",,pH 6.8,,Tm,68 °C
CC(C)=CCc1c(O)cc(/C=C/c2ccccc2)cc1O,Sp1 (human),"reporter gene, inhibitor",SW1353,control transcription factor,,IC50,> 25 µg/mL
cholecystokinin octapeptide,"Yes kinase, rat",measured: Yes pY416,,"100 nM, 1 min, no PKC inhibitor",baseline: untreated control,phosphorylation level,293 ± 24%
B2 (haptoglobin),anti-oxytocin rabbit polyclonal IgG,"cross-reactivity, oxytocin EIA, Enzo",,3 µg/mL,,apparent oxytocin concentration,1.5 ± 1.4 pg/mL
CC(=O)N[C@@H](Cc1c[nH]cn1)C(=O)N[C@H](CO)[C@H](O)c1ccc([N+](=O)[O-])cc1,Escherichia coli 70S ribosome,"binding, fluorescence polarization",,together with: BODIPY-erythromycin 4 nM,,Kd,34 ± 5 µM
CO/N=C(\C(=O)N[C@@H]1C(=O)N2C(C(=O)O)=C(CSc3nc(=O)c(=O)[nH]n3C)CS[C@H]12)c1csc(N)n1,PBP5/6 Escherichia coli,"Bocillin-FL binding, inhibitor","Escherichia coli, MG1655","30 min, Tris-EDTA permeabilised, together with: Bocillin-FL 25 µM",,apparent IC50,15 ± 17 µM
COCC(C)n1ccn2cc(C(=O)NCc3ccc(F)cc3F)c(=O)c(O)c2c1=O (centres unmarked),HIV-1 integrase wild type,viral replication,"HOS, HIV-1",single-round vector,,EC50,0.0017 ± 0.0001 µM
Oc1cc(O)cc(/C=C/c2ccccc2)c1,Sp1 (human),"reporter gene, inhibitor",SW1353,control transcription factor,,IC50,12.5 µg/mL
Transferrin,anti-oxytocin rabbit polyclonal IgG,"cross-reactivity, oxytocin EIA, Enzo",,3 µg/mL,,apparent oxytocin concentration,10.7 ± 7.9 pg/mL
Cc1cccc(CN2CCN(C(c3ccccc3)c3ccc(Cl)cc3)CC2)c1 (centres unmarked),mouse CAR LBD in CAR:RXR,"binding, HDX-MS",,"concentration not given, 10 to 3600 s, pH 8, 4 °C, residues 330-338, helix H10",baseline: unliganded CAR:RXR,deuterium exchange change,-10%

# Some of these lines once more:
Molecule,tested on,test,system,conditions,scale,quantity,result
NC(Cc1ccc(O)cc1)C(=O)NC(CO)C(O)c1ccc([N+](=O)[O-])cc1 (centres unmarked),Escherichia coli 70S ribosome,"binding, fluorescence polarization",,together with: BODIPY-erythromycin 4 nM,,Kd,8.2 ± 1.5 µM
C=CC(=O)OCCO,lysine-containing peptide,mass spectrometry,,"24 h, pH 10.2, room temperature",,maximal peptide depletion,-111%
